Assay results gathered from unrelated publications.
Compare with care: the assays were run in different laboratories. “And” joins repeats or separate records; there may be more than shown. ± marks the error that the study gave. Converted amounts (≈) assume the structure as drawn.
UniProt P43219, sequence (whole entry, looked up): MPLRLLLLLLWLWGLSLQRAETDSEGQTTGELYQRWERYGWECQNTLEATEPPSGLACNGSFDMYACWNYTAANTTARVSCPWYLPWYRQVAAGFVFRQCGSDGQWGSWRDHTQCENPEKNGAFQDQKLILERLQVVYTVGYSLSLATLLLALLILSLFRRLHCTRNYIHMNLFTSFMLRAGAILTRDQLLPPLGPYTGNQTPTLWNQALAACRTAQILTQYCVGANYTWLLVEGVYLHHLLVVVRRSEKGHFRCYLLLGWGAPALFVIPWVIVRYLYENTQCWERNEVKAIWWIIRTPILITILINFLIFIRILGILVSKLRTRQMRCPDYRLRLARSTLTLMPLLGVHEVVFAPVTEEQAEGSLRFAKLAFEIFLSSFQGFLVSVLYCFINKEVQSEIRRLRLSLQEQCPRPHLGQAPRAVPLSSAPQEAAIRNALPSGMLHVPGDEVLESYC

Compound = N=C(N)NCc1cn([C@@H]2[C@@H](OCCn3cc(-c4cc(OCCOCCO)c(C#Cc5cc(OCCOCCO)c(C#Cc6cc(OCCOCCO)c(-c7cn(CCO[C@H]8O[C@H](CO)[C@@H](O)[C@H](O)[C@@H]8n8cc(CNC(=N)N)nn8)nn7)cc6OCCOCCO)cc5OCCOCCO)cc4OCCOCCO)nn3)O[C@H](CO)[C@@H](O)[C@@H]2O)nn1.O=CO.O=CO; target or system = L-SIGN (human); test = viral trans-infection; system = Jurkat expressing L-SIGN, Ebola virus; conditions = 0.5 µM, rVSV-luc pseudovirus; endpoint = inhibition; result = 84%
Compound = Cc1ccc(NS(=O)(=O)c2c(C(=O)N3CCCCCC3)c(C)n(C)c2C)c(Cl)c1; target or system = Monkeypox virus; test = qPCR; system = Vero C1008, wild type; conditions = 100 µM, 72 h; scale = relative to: untreated; endpoint = relative infection; result = 12.1% and 9.53% and 10.1%
Compound = Cc1cc(/C=C/C#N)cc(C)c1Nc1nc(Nc2ccc(C#N)cc2)ncc1N; target or system = HIV-1; test = viral replication, single-round infection; system = RT mutant Y181I; endpoint = EC50; result = 0.019 ± 0.0026 µM
Compound = CC[C@H](C)[C@@H]1NC(=O)[C@H](CC(=O)O)NC(=O)[C@H]([C@@H](C)O)NC(=O)[C@@H]2CSSC[C@@H]3NC(=O)[C@H](CC(C)C)NC(=O)[C@H](CC(N)=O)NC(=O)[C@H](CC(C)C)NC(=O)[C@H](CCCNC(=N)N)NC(=O)[C@H](Cc4ccc(O)cc4)NC(=O)[C@H](CCCCN)NC(=O)[C@H](CCSC)NC(=O)[C@H](CO)NC(=O)[C@H]([C@@H](C)O)NC(=O)[C@H](CCCNC(=N)N)NC(=O)[C@H](CSSC[C@H](NC(=O)[C@H]([C@@H](C)O)NC(=O)[C@H](CCCCN)NC(=O)[C@H](CCCNC(=N)N)NC3=O)C(=O)NCC(=O)N[C@@H](CO)C(=O)N[C@H](C(=O)O)CSSC[C@H](NC(=O)[C@@H](NC(=O)[C@@H](N)CCCNC(=N)N)[C@@H](C)O)C(=O)N[C@@H](CCCCN)C(=O)N[C@@H](CC(=O)O)C(=O)N[C@@H](CC(C)C)C(=O)N[C@@H]([C@@H](C)CC)C(=O)N3CCC[C@H]3C(=O)N[C@@H](C(C)C)C(=O)N[C@@H](CO)C(=O)N[C@@H](CCC(=O)O)C(=O)N2)NC(=O)[C@H](CCCNC(=N)N)NC1=O; target or system = KcsA-Shaker chimera channel Y82V; test = two-electrode voltage clamp; system = Xenopus oocytes; conditions = 0 mV; scale = relative to: KcsA-Shaker; endpoint = fold decrease in affinity; result = ~550 fold
Compound = CC[C@H](C)[C@H](NC(=O)[C@H](CCCCN)NC(=O)[C@H](Cc1c[nH]c2ccccc12)NC(=O)[C@H](CC(C)C)NC(=O)[C@H](CC(C)C)NC(=O)[C@H](CC(=O)O)NC(=O)[C@@H](NC(=O)[C@H](CCCNC(=N)N)NC(=O)[C@H](CCC(=O)O)NC(=O)[C@H](CCCNC(=N)N)NC(=O)[C@H](CC(=O)O)NC(=O)[C@H](CC(C)C)NC(C)=O)[C@@H](C)CC)C(=O)N[C@@H](C)C(=O)N[C@@H](CCCNC(=N)N)C(=O)N[C@@H](C)C(=O)NCC(=O)N[C@@H](C)C(=O)N[C@@H](CCCNC(=N)N)C(=O)N[C@@H](CO)C(=O)N[C@@H](C)C(=O)N[C@H](C(=O)NCC(N)=O)C(C)C; test = membrane partitioning, 1H NMR; system = POPC:POPG:cholesterol SUV; conditions = pH 7.5, 25 °C; endpoint = Kd; result = 1000 ± 60 µM
Compound = CC[C@H](C)[C@H](NC(=O)[C@H](CCCCN)NC(=O)[C@H](CCCCN)NC(=O)[C@H](CC(C)C)NC(=O)[C@H](Cc1c[nH]c2ccccc12)NC(=O)CN)C(=O)NCC(=O)N[C@@H](CCCCN)C(=O)N[C@@H](CCCCN)C(=O)N[C@H](C(=O)N[C@@H](CCC(=O)O)C(=O)N[C@@H](CCCNC(=N)N)C(=O)N[C@H](C(=O)NCC(=O)N[C@@H](CCC(N)=O)C(=O)N[C@@H](Cc1c[nH]cn1)C(=O)N[C@H](C(=O)N[C@@H](CCCNC(=N)N)C(=O)N[C@@H](CC(=O)O)C(=O)N[C@@H](C)C(=O)N[C@H](C(=O)N[C@H](C(=O)N[C@@H](CCC(N)=O)C(=O)N[C@H](C(=O)N[C@H](C(=O)NCC(=O)N[C@H](C(=O)N[C@@H](C)C(=O)N[C@@H](CCC(N)=O)C(=O)N[C@@H](CCC(N)=O)C(=O)N[C@@H](C)C(=O)N[C@@H](C)C(=O)N[C@@H](CC(N)=O)C(=O)N[C@H](C(=O)N[C@@H](C)C(=O)N[C@@H](C)C(=O)N[C@H](C(=O)N[C@@H](CC(C)C)C(=O)N[C@@H](CCCCN)C(N)=O)[C@@H](C)O)C(C)C)C(C)C)[C@@H](C)CC)[C@@H](C)O)[C@@H](C)CC)[C@@H](C)O)[C@@H](C)O)C(C)C)[C@@H](C)CC; target or system = Escherichia coli; test = broth microdilution; system = RKI 131/03, CAMHB with 10% mouse serum; conditions = 150 mM NaCl; endpoint = MIC; result = 2 µg/mL (≈ 0.476 µM)
Compound = Nc1ccn(C2CCC(OC(C(=O)O)P(=O)(O)O)C2)c(=O)n1 (racemic); target or system = HIV-1 reverse transcriptase M184V; test = enzyme activity, inhibitor; conditions = added: poly(rI)·oligo(dC), [3H]dCTP; scale = relative to: mutant over wild type; endpoint = fold resistance; result = 11 fold
Compound = CC[C@H](C)[C@H](NC(=O)[C@H](CCCN)NC(=O)[C@H](CC(=O)O)NC(=O)[C@H](CC(C)C)NC(=O)C(C)(CC(C)C)NC(=O)[C@@H](NC(=O)[C@H](CO)NC(=O)[C@H](Cc1ccc(O)cc1)NC(=O)[C@H](CC(=O)O)NC(=O)[C@H](CO)NC(=O)[C@@H](NC(=O)[C@H](Cc1ccccc1)NC(=O)[C@@H](NC(=O)CNC(=O)[C@H](CCC(=O)O)NC(=O)C(C)(C)NC(=O)[C@@H](N)Cc1ccc(O)cc1)[C@@H](C)O)[C@@H](C)CC)[C@@H](C)CC)C(=O)N[C@@H](Cc1c[nH]cn1)C(=O)N[C@@H](CCC(N)=O)C(=O)NC(C)(C)C(=O)N[C@@H](CC(=O)O)C(=O)N[C@@H](Cc1ccccc1)C(=O)N[C@H](C(=O)N[C@@H](CCC(=O)O)C(=O)N[C@@H](Cc1ccc(O)cc1)C(=O)N[C@@H](CCCCNC(=O)COCCOCCNC(=O)COCCOCCNC(=O)CC[C@H](NC(=O)CCCCCCCCCCCCCCCCCCC(=O)O)C(=O)O)C(=O)N[C@@H](CC(C)C)C(=O)N[C@@H](CCC(=O)O)C(=O)NCC(=O)NCC(=O)N1CCC[C@H]1C(=O)N[C@@H](CO)C(=O)N[C@@H](CO)C(=O)NCC(=O)N[C@@H](C)C(=O)N1CCC[C@H]1C(=O)N1CCC[C@H]1C(=O)N1CCC[C@H]1C(=O)N[C@@H](CO)C(N)=O)C(C)C (stereo partly shown); target or system = Gastric inhibitory polypeptide receptor (Rattus norvegicus, UniProt P43219); test = cAMP, agonist; system = HEK293; endpoint = Emax; result = 104%
Compound = CC(C)n1ccn2cc(C(=O)NCc3ccc(F)cc3F)c(=O)c(O)c2c1=O; target or system = HIV-1; test = viral replication, single-round vector infection; system = IN T97A/G140S/Q148H; endpoint = EC50; result = 0.26 ± 0.0482 µM
Compound = Cc1cc(/C=C/C#N)cc(C)c1-n1cnc2cnc(Nc3ccc(C#N)cc3)nc21; target or system = HIV-1; test = viral replication, single-round infection; system = RT mutant L100I/K103N; endpoint = EC50; result = 0.0398 ± 0.0092 µM
Compound = CCCCCCCCCCCCCCCC(=O)N[C@@H](CCC(=O)NCCCC[C@H](NC(=O)[C@H](CC(=O)O)NC(=O)[C@H](CO)NC(=O)[C@@H](NC(=O)[C@H](Cc1ccccc1)NC(=O)[C@@H](NC(=O)CNC(=O)[C@H](CCC(N)=O)NC(=O)[C@H](C)NC(=O)[C@@H](Cc1ccc(O)cc1)NC(C)=O)[C@@H](C)O)[C@@H](C)O)C(=O)N[C@@H](CO)C(=O)N[C@@H](CCCCN)C(=O)N[C@@H](Cc1ccc(O)cc1)C(=O)N[C@@H](CC(C)C)C(=O)N[C@@H](CC(=O)O)C(=O)N[C@@H](CCC(=O)O)C(=O)N[C@@H](CCCNC(=N)N)C(=O)N[C@@H](C)C(=O)N[C@@H](C)C(=O)N[C@@H](CCC(N)=O)C(=O)N[C@@H](CC(=O)O)C(=O)N[C@@H](Cc1ccccc1)C(=O)N[C@H](C(=O)N[C@@H](CCC(N)=O)C(=O)N[C@@H](Cc1c[nH]c2ccccc12)C(=O)N[C@@H](CC(C)C)C(=O)N[C@@H](CC(C)C)C(=O)N[C@@H](CCC(=O)O)C(=O)NCC(=O)NCC(=O)N1CCC[C@H]1C(=O)N[C@@H](CO)C(=O)N[C@@H](CO)C(=O)NCC(=O)N[C@@H](C)C(=O)N1CCC[C@H]1C(=O)N1CCC[C@H]1C(=O)N1CCC[C@H]1C(=O)N[C@@H](CO)C(N)=O)C(C)C)C(=O)O; system = cynomolgus monkey, plasma; conditions = intravenous, 0.0031 mg/kg; endpoint = half-life; result = 3.47 to 3.56 h
Compound = COCCCn1ccn2cc(C(=O)NCc3ccc(F)cc3F)c(=O)c(O)c2c1=O; target or system = human immunodeficiency virus 1; test = single-round vector infection; system = integrase S230N; endpoint = EC50; result = 0.0046 ± 0.0004 µM
Compound = CCCCCCCCCCCCCCCC(=O)N[C@@H](CCC(=O)NCCOCCOCCC(=O)NCCOCCOCCC(=O)NCCCC[C@H](NC(=O)[C@H](CC(=O)O)NC(=O)[C@H](CC(C)C)NC(=O)[C@H](Cc1ccc(O)cc1)NC(=O)[C@H](CCCCN)NC(=O)[C@H](CO)NC(=O)[C@H](Cc1ccc(O)cc1)NC(=O)[C@H](CC(=O)O)NC(=O)[C@H](CO)NC(=O)[C@@H](NC(=O)[C@H](Cc1ccccc1)NC(=O)[C@@H](NC(=O)CNC(=O)[C@H](CCC(N)=O)NC(=O)[C@@H](CO)NC(=O)[C@@H](N)Cc1c[nH]cn1)[C@@H](C)O)[C@@H](C)O)C(=O)N[C@@H](CCCNC(=N)N)C(=O)N[C@@H](CCCNC(=N)N)C(=O)N[C@@H](C)C(=O)N[C@@H](CCC(N)=O)C(=O)N[C@@H](CC(=O)O)C(=O)N[C@@H](Cc1ccccc1)C(=O)N[C@H](C(=O)N[C@@H](CCC(N)=O)C(=O)N[C@@H](Cc1c[nH]c2ccccc12)C(=O)N[C@@H](CC(C)C)C(=O)N[C@@H](CC(C)C)C(=O)N[C@@H](CC(N)=O)C(=O)N[C@H](C(=O)NCC(=O)NCC(=O)N1CCC[C@H]1C(=O)N[C@@H](CO)C(=O)N[C@@H](CO)C(=O)NCC(=O)N[C@@H](C)C(=O)N1CCC[C@H]1C(=O)N1CCC[C@H]1C(=O)N1CCC[C@H]1C(=O)N[C@@H](CO)C(N)=O)[C@@H](C)O)C(C)C)C(=O)O; system = rhesus monkey, female; conditions = subcutaneous, 300 µg/kg once daily, 28 days; endpoint = urea; result = 4.88 ± 1.37 mmol/L
